# Assay results pooled from the literature.
# Parts stem from different laboratories: compare values within a part only.

# Set 1 — method: RNA Bind-n-Seq; form: RNA; matrix: in vitro; tested at: not given; relative to: input RNA pool; direction: higher = stronger binding
# Target: RING finger protein unkempt homolog, zinc fingers 1-6, GST-SBP tag (UNK, Homo sapiens, UniProt Q9C0B0, residues 30-357)
# UniProt Q9C0B0, sequence (30-357, looked up): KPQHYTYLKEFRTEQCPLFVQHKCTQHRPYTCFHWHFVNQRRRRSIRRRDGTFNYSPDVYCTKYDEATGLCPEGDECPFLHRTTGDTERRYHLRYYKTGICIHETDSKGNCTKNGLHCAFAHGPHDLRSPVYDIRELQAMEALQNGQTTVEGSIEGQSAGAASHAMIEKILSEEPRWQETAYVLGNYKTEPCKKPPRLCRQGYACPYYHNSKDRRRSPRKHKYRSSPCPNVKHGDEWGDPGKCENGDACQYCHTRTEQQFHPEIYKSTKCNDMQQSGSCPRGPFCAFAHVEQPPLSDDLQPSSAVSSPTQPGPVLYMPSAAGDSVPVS
# Notes: RNA with constant flanks, human and mouse sites, ends assumed
# Shared flanks, not repeated: GGGAGUUCUACAGUCCGACGAUC … CAACAGAGGAUUGAGCAUCA
Strand,bound/input enrichment [ratio]
GGAAUUUACAUGGUCUAUUGCCGAAAACACAAGAAAACUGCACAUAACUCCGAAGCUGAUUUAGAAGAAAGUUUUAAUGAACAUGAACUGGAGCCCUCAUCACCUAAAAGUAAAAAGAAA,0.486
GCUGGAAAUAGGGCACAGAUCCAGACUGUGAUAGAUGCUAACAUGUUCCCAGCUCUUAUUAGUAUAUUGCAAACAGCAGAGUUCCGGACAAGGAAGGAAGCUGCUUGGGCCAUCACAAAU,1.07
ACUUAGCAAGGGCUCUGAAAUGACAAAGAGAACGAGCACCACAAAUGAGAACAGGAUCAUUUUAGUAAAUACAGCUUUAUCCCAAAAGCUUUAACUGUAUUGGGAAAACUUAAAAAAUAG,28.4
AAUUGUGGCGAAUCAGAAGGAUUGUCAUGGCAUGGUAGAAUGUAUAUUGCUUGUCUCUCUAUAGAAUAAUUUAAAAAUGACCACACCGAACAAGACACCUCCUGGUGCUGAUCCUAAGCA,5.16
GAUGCUGUGGCAGCUAUGGCAAAAGACAAAGCUAAUAUGCAACACAGAUAUGUGGAGCUCUUCUUAAAUUCUACUGCAGGAACAAGUGGGGGUGCUUACGAUCACAGCUAUGUAGAACUU,0.401
UUAGCUCUCUUAACGCUGCCUGAAAGAGAGCUGGAUGACACUGUAUCUUUGGAGCAUCAGAAGUUUCUAAAGCAUAAAUUCUUUGUGCAAGAAAUUAUAUUUGAUCGCUGCUUAGACAAG,0.714
CGUGUUUUGCGCCGCACCCGAAUCGCCAAAAACUUGGAACUGGAACAAGUGACUGUCCCAAUUGGAGUUCUGCUGGUGAUCUUUGAAUCUCGUCCUGACUGUCUACCCCAGGUGGCAGCU,0.185
UACUCGGACAAGUACUUCGACGAACACUACGAGUACCGGCAUGUUAUGUUACCCAGAGAACUUUCCAAACAAGUACCUAAAACUCAUCUGAUGUCUGAAGAGGAGUGGAGGAGACUUGGU,0.131
GAAGAGCCAAGCAGAAGCUCUUAGAAAUCGCCACCAAGCCCACCUAUCCACCCAUGAACCCAAUUCCACCACCACUGCCUCCUGACAUACCGAGCUUCGACAUUAUUGCUGACAGCUUGU,0.397
AAACUUCAAACUACUCUUACUUGUAAUUCCAUGGUACUUUUUGAUCAUAUGGGAUGUCUGAAGAAAUAUGAAACUGUGCAAGACAUUCUGAAAGAAUUCUUUGAUUUACGAUUAAGUUAU,0.172
CAGGGUCCUAAGACUAUUGAUCAAAUUCACAAGGAGGCUGAGAUGGAAGAGCACCGAGAACAUAUUAAAGUACAGCAGCUCAUGGCCAAGGGCAGCGACAAACGUCGGGGUGGCCCUCCA,0.171

# Set 2 — method: RNA Bind-n-Seq; form: RNA; matrix: in vitro; tested at: 365 nM; relative to: no-protein control; direction: higher = stronger binding
# Target: RNA binding protein fox-1 homolog 2, RRM domain, GST-SBP tag (RBFOX2, Homo sapiens, UniProt O43251-10, residues 100-194)
# Notes: natural RNA segment, single round, ends assumed
# Shared flanks, not repeated: GGGAGUUCUACAGUCCGACGAUC … UGGAAUUCUCGGGUGCCAA
# Target sequence (chain): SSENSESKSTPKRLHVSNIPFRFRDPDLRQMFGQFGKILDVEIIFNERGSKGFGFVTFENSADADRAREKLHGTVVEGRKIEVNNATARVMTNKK
Strand,RBNS enrichment (R)
UAUUAGAAUGUGUAAAUGAAGCUUGCUUGGAAGGGGAAAACUUUAAAUAAAAACUUUAUGUACUAAUCAACUGUCUCUCAUAUCCUACUUACAUAUGUAUAAAUCUCUAC,0.98
ACAUUUAUGUGGGCCACAUACCCAAACUUCCUGCCAUGUAAAGGCGAGUGAUUGUGAAAGCACCUCUGUUGUAGUGGGUAGGUGCCUUUCUCAUGAGCGGGGAGCAUAAC,0.753
CCCUCCUGGUGCUCUAUCCACUGCAGGGCCAGCCACUCGCCAGGAGGCCACGGGCCACGGGAAGAACCAAGCGGUGCCAGCCACGAGACGUCACCAAGAAAACAUGCAAC,0.644
AAGAGGUUAGCUUUGGCAUUGGAAGAUGAGAUUUUUGCUUACCUGUAGUAUUUCUGUACAUACCUGUUUCCAGCAACUUCAGUGUCAAUGUUUUUGAUUUAUUUGUGUCU,0.425
AUCACCUAGGACUGACUCGGCAGUGUGCAGUGGUGCAUGCACUGUCUCAGCCAACCCGCUCCACUACCCGGCAGGGUACACAUUCGCACCCCUACUUCACAGAGGAAGAA,0.852
AAAGAGUCUAAAGGGGCCGGGAGAAGCAUGAGCGAGGGGCAGAUUCUAGUCGGGAGCCCAUGCCCUGGAAAUCCAUCUUUCUUCAUCUUUCCCAUUGACCACUUUGGGUU,0.468
UUUUUAAAAAUCCCACGUGUGAAAGUUUACUGGCUUUAUUAGCAAGUUCCUUUUUACUUCAAGCUACUUUUUAUAAAAAAGAACAUUUUUCCAGUGUGGUUUUUAACAGA,0.557
GGCCUGGCCAGCUAUCCUUCUCUAUGCAAAUGCGUCAAAGCCAUGACUGCUGGAACCCAAAACUGACAAGGUUUAUUUUUUCCAGAGCCGGUGGCUGGUCUUCCAUUUAC,0.256
UGAAGAGAUGGCUCAGUGGUUCAGAGCACUUACUCCUCAGGUGUAAGACCUGGGUUUGGUUCUCAGCACCCAUGUGGCAACUUACAACCAUCCAUAGCUCCAGAUCCAGG,0.315
CAUUAAAAUGAUCCACACCUUGAACACUGCCCUCUCUAGAAGGUUGAUUUUGAUCAGCCUUUUGAAGAUGGGUGUCGUUUCCCUAACUUAUCUCACAGAAUUUUGAGUGU,0.253
ACCCAUGAAAUACUUCAUCUUGAGAAGAGUGCUAUGUGGAAAUCACCAAAUAUCUCGCAACUUUAUUUCAUCUGGUGUAAAUCUGAACAUCAACAUAGGAAAACUGUCAU,0.443
AAAUAACAUCAAGUAACAUCUGUAUCAGGCCCUACAUAGAACAUACAGUUGAGUGGGAGUAAACAAAAAGAUAAACAUGCGUGUUAAUGGCUGUUCGAGAGAAAUCGGAA,0.318

# Set 3 — method: protein binding microarray; form: double-stranded DNA, one strand shown; matrix: in vitro; tested at: not given; relative to: not given; direction: higher = stronger binding
# Target: Histone acetyltransferase KAT6A, winged helix 1, GST fusion (KAT6A, Homo sapiens, UniProt Q92794, residues 1-85)
# Notes: 8-mer, flanks averaged, mean of 2 arrays, mostly near background
# Residues (chain): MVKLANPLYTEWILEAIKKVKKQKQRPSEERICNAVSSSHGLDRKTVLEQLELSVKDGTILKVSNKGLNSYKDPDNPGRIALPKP
Strand,E-score
ATCCGAGC,0.133
CTATACTA,-0.0412
GAGCATGC,-0.0879
ATCTAGTA,-0.156
CGGATGCA,0.00662
CATGAACC,-0.0258
AATTCCCT,-0.232
CAGCCTTA,-0.211
ATTGTAGG,-0.245
AGCTTACG,0.0382
CAAAACTG,-0.173
ATAGTACG,0.148
GAATTTGA,-0.0638
CATGTGGG,-0.178
TTTCGAAA,-0.166
GATCAAAA,-0.0658
AGACGGAA,0.0634
AAACCGCA,0.0169
AACATTCG,-0.136
CAACATTG,-0.166
GAAGTGTA,-0.0584
CTGTGGCA,-0.232
AGTCAAGG,-0.197

# Set 4 — method: protein-binding microarray; form: double-stranded DNA, one strand shown; matrix: in vitro; tested at: 2540 nM top; notes: 60-bp whole probe; with: salmon DNA 0.4 mg/ml; relative to: random background probes; direction: higher = stronger binding; shared flanks, not repeated: GCCTAGCAC … GTCTTGATTCGCTTGACGCTGCTG
# Target: Interferon regulatory factor 3, full length, phosphomimetic (IRF3, Homo sapiens, UniProt Q14653, residues 1-427, S386D/S396D/S398D/S402D/T404D/S405D)
# Target sequence (chain): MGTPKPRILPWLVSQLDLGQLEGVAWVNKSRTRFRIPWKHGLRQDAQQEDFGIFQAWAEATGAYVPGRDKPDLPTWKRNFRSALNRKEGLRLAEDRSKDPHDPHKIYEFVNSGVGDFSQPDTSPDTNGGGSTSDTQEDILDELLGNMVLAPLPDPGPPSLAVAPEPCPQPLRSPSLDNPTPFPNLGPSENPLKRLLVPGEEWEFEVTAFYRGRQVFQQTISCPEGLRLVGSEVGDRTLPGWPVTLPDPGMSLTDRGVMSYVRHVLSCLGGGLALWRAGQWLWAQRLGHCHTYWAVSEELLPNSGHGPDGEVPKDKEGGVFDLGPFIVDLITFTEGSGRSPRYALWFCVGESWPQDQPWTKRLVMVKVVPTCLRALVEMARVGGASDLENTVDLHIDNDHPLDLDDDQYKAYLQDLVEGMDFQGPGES
Strand,fitted relative affinity
TTAGGTCTCTGACTGGGTTAGTGCTAG,-0.666 z-score
GACGATTTCCGTCTCGAGACGTGCTAG,3.68 z-score
GACGATTTCAGTATCGTGACGTGCTAG,2.22 z-score
GACGGTTCCCTGTTCCTGACGTGCTAG,1.92 z-score
TTAGATATCAGTCTCGCTTAGTGCTAG,1.2 z-score
TCCATTTTGTGTTTTCATTTGTGCTAG,2.53 z-score
TTAGAACTGAGTACCGATTAGTGCTAG,0.62 z-score
GGCGAACTGGGGTATCGAGACGTGCTA,-0.866 z-score
TCAAACTTCTCCACTGAAACTGTGCTA,0.0336 z-score
TTAGGTATCGGGACTGGATTAGTGCTA,1.56 z-score
TTAGGTATCGACTTTCCGTTAGTGCTA,1.78 z-score
AGTTTTCTCATTCGTCATTTCGTGCTA,2.4 z-score
TAGACTCTGTGCTTTCCTCGTGTGCTA,-0.392 z-score
AGAGCTAAGTGAGTGTCATCGTGCTAG,-0.803 z-score
CCCTGAGGAATCCTGCAGCCGTGCTAG,-0.425 z-score
CAGCCTTTGCCTCATCTTGCAGTGCTA,0.00756 z-score
TTAGGCTTCCTTTTCCTTTAGTGCTAG,3.01 z-score
ATCTCTTTCCTTACTTCCCAGTGCTAG,4.7 z-score
GACGGTTTCGACACTGGAGACGTGCTA,3.38 z-score
TCAGGTATCGGTATCGGTTAGTGCTAG,5.41 z-score
TTAGGTCTCCTTCCCCTTTAGTGCTAG,1.59 z-score

# A few entries again (set 2):
Strand,RBNS enrichment (R)
AUCACCUAGGACUGACUCGGCAGUGUGCAGUGGUGCAUGCACUGUCUCAGCCAACCCGCUCCACUACCCGGCAGGGUACACAUUCGCACCCCUACUUCACAGAGGAAGAA,0.852
UAUUAGAAUGUGUAAAUGAAGCUUGCUUGGAAGGGGAAAACUUUAAAUAAAAACUUUAUGUACUAAUCAACUGUCUCUCAUAUCCUACUUACAUAUGUAUAAAUCUCUAC,0.98
CCCUCCUGGUGCUCUAUCCACUGCAGGGCCAGCCACUCGCCAGGAGGCCACGGGCCACGGGAAGAACCAAGCGGUGCCAGCCACGAGACGUCACCAAGAAAACAUGCAAC,0.644
ACAUUUAUGUGGGCCACAUACCCAAACUUCCUGCCAUGUAAAGGCGAGUGAUUGUGAAAGCACCUCUGUUGUAGUGGGUAGGUGCCUUUCUCAUGAGCGGGGAGCAUAAC,0.753
AAAGAGUCUAAAGGGGCCGGGAGAAGCAUGAGCGAGGGGCAGAUUCUAGUCGGGAGCCCAUGCCCUGGAAAUCCAUCUUUCUUCAUCUUUCCCAUUGACCACUUUGGGUU,0.468
AAAUAACAUCAAGUAACAUCUGUAUCAGGCCCUACAUAGAACAUACAGUUGAGUGGGAGUAAACAAAAAGAUAAACAUGCGUGUUAAUGGCUGUUCGAGAGAAAUCGGAA,0.318
ACCCAUGAAAUACUUCAUCUUGAGAAGAGUGCUAUGUGGAAAUCACCAAAUAUCUCGCAACUUUAUUUCAUCUGGUGUAAAUCUGAACAUCAACAUAGGAAAACUGUCAU,0.443
UGAAGAGAUGGCUCAGUGGUUCAGAGCACUUACUCCUCAGGUGUAAGACCUGGGUUUGGUUCUCAGCACCCAUGUGGCAACUUACAACCAUCCAUAGCUCCAGAUCCAGG,0.315
